Experimental data gathered from unrelated publications.
± gives the spread as reported.
Cell line: PC-3

| Compound | assay | setting | how to read | measurement | result |
| --- | --- | --- | --- | --- | --- |
| COC(=O)c1c(-c2ccc(OC)cc2)c2n(c1C(=O)OC)CCn1cccc1-2 | cell growth or viability, MTT | 48 h | – | IC50 | 74.4 µM |
| COc1cc(CNC(=O)CCCC/C=C/C(C)C)ccc1OCc1cn(-c2ccccc2F)nn1 | SRB | 10 µM, 48 h | – | growth percent | 82% |
| COC(=O)c1c(-c2cc(OC)c(OC)c(OC)c2)c2n(c1C(=O)OC)CCn1cccc1-2 | cell growth or viability, MTT | 48 h | – | IC50 | 72.7 µM |
| C[C@]1([N+](=O)[O-])C(=O)c2ccccc2O[C@@H]1CC(=O)NNc1nc2ccccc2s1 | cell growth or viability, SRB | 96 h | – | IC50 | > 50 µM |
| CSCC[C@H](NC(=O)[C@H](CC(C)C)NC(=O)[C@H](Cc1c[nH]cn1)NC(=O)CNC(=O)[C@@H](NC(=O)[C@H](C)NC(=O)[C@H](Cc1c[nH]c2ccccc12)NC(=O)[C@H](CCC(N)=O)NC(=O)CCCCCNC(=O)[C@H](CCC(=O)NCCCC[C@@H]1NC(=O)[C@@H](Cc2ccc(O)cc2)NC(=O)[C@H](CC(=O)O)NC(=O)CNC(=O)[C@H](CCCNC(=N)N)NC1=O)NC(=O)CN1CCN(CC(=O)O)CCN(CC(=O)O)CC1)C(C)C)C(N)=O [copper-64 labelled] | – | up to 120 min, 37 °C | reference: added activity | internalization | < 1% |
| O=c1[nH]nc(O)c2c(-c3ccc(F)cc3)c3n(c12)CCn1cccc1-3 | cell growth or viability, MTT | 48 h | – | IC50 | 74.6 µM |
| CC12CC3CC(C)(C1)CC(NC(=O)C[C@H]1Oc4ccccc4C(=O)[C@]1(C)[N+](=O)[O-])(C3)C2 | cell growth or viability, SRB | 96 h | – | IC50 | 11.4 µM |
| COc1cc(CNC(=O)CCCC/C=C/C(C)C)ccc1OCc1cn(-c2cccc(Cl)c2)nn1 | SRB | 10 µM, 48 h | – | growth percent | 83.6% |
| CC[C@]1([N+](=O)[O-])C(=O)c2ccccc2O[C@@H]1CC(=O)NC12CC3CC(CC(C3)C1)C2 | cell growth or viability, SRB | 96 h | – | IC50 | 6.81 µM |
| C#C[C@@]1(O)[C@@H](CO)O[C@@H](n2cc(Br)c3c(N)ncnc32)[C@@H]1O | cell growth or viability, SRB | 48 h | – | GI50 | 0.107 µM |
| COc1cc(CNC(=O)CCCC/C=C/C(C)C)ccc1OCc1cn(-c2ccc([N+](=O)[O-])cc2)nn1 | SRB | 10 µM, 48 h | – | growth percent | 78% |
| C[C@]1([N+](=O)[O-])C(=O)c2ccccc2O[C@@H]1CC(=O)NCC1CCCCC1 | cell growth or viability, SRB | 96 h | – | IC50 | 43.9 µM |
| CC(=O)O[C@@]12CO[C@@H]1C[C@H](O)[C@@]1(C)C(=O)[C@H](O)C3=C(C)[C@@H](OC(=O)[C@H](O)[C@@H](NC(=O)OC(C)(C)C)c4ccccc4)C[C@@](O)([C@@H](OC(=O)c4ccccc4)[C@H]21)C3(C)C | RT-qPCR | IC50 concentration, 72 h plus 24 h recovery | reference: untreated | GRPR mRNA level | 42.3 ± 4.55% |
| COc1cc(CNC(=O)CCCC/C=C/C(C)C)ccc1OCc1cn(-c2ccc(C(F)(F)F)cc2)nn1 | SRB | 10 µM, 48 h | – | growth percent | 70.5% |
| O=c1[nH]nc(O)c2c(-c3ccc(Br)cc3)c3n(c12)CCn1cccc1-3 | cell growth or viability, MTT | 48 h | – | IC50 | 60 µM |
| C[C@]1([N+](=O)[O-])C(=O)c2cc(C(F)(F)F)ccc2O[C@@H]1CC(=O)NC12CC3CC(CC(C3)C1)C2 | cell growth or viability, SRB | 96 h | – | IC50 | 1.69 µM |
| Cc1cccc(-c2c3n(c4c(=O)[nH]nc(O)c24)CCn2cccc2-3)c1 | cell growth or viability, MTT | 48 h | – | IC50 | 72.4 µM |
| C[C@]1([N+](=O)[O-])C(=O)c2ccccc2O[C@@H]1CC(=O)NC1CCCCC1 | cell growth or viability, SRB | 96 h | – | IC50 | 3.35 µM |
| COc1cc(CNC(=O)CCCC/C=C/C(C)C)ccc1OCc1cn(-c2ccc(Br)cc2)nn1 | SRB | 10 µM, 48 h | – | growth percent | 73.7% |
| COC(=O)c1c(-c2cccc(C)c2)c2n(c1C(=O)OC)CCn1cccc1-2 | cell growth or viability, MTT | 48 h | – | IC50 | 92.8 µM |
| COc1cc(CNC(=O)CCCC/C=C/C(C)C)ccc1OCc1cn(-c2ccccc2OC)nn1 | SRB | 10 µM, 48 h | – | growth percent | 73.5% |
| N#CC(=Cc1ccc([N+](=O)[O-])cc1)C(=O)Nc1nnc(NC(=O)c2ccccc2)s1 | cell growth or viability, MTT | 48 h | – | IC50 | 75.2 µM |
| C[C@]1([N+](=O)[O-])C(=O)c2ccccc2O[C@@H]1CC(=O)NCc1ccccc1 | cell growth or viability, SRB | 96 h | – | IC50 | 9.91 µM |
| CNC(=O)c1cc(O[C@H]2CC[C@H](NC(=O)Nc3ccc(Cl)c(C(F)(F)F)c3)CC2)ccn1 | cell growth or viability, MTT | 72 h | – | EC50 | 7 µM |
| O=c1[nH]nc(O)c2c(-c3cccc(O)c3)c3n(c12)CCn1cccc1-3 | cell growth or viability, MTT | 48 h | – | IC50 | 84.4 µM |
| COc1cc(CNC(=O)CCCC/C=C/C(C)C)ccc1OCc1cn(-c2ccc(Cl)c(Cl)c2)nn1 | SRB | 10 µM, 48 h | – | growth percent | 77.1% |
| CN(C(=O)C[C@H]1Oc2ccccc2C(=O)[C@]1(C)[N+](=O)[O-])C1CCCCC1 | cell growth or viability, SRB | 96 h | – | IC50 | > 50 µM |
| COC(=O)c1c(-c2ccc(Br)cc2)c2n(c1C(=O)OC)CCn1cccc1-2 | cell growth or viability, MTT | 48 h | – | IC50 | 91.2 µM |
| COc1cc(CNC(=O)CCCC/C=C/C(C)C)ccc1OCc1cn(-c2ccc(F)cc2)nn1 | SRB | 10 µM, 48 h | – | growth percent | 84.1% |

Excerpt of the above:
| Compound | assay | setting | how to read | measurement | result |
| --- | --- | --- | --- | --- | --- |
| COC(=O)c1c(-c2ccc(OC)cc2)c2n(c1C(=O)OC)CCn1cccc1-2 | cell growth or viability, MTT | 48 h | – | IC50 | 74.4 µM |
| COc1cc(CNC(=O)CCCC/C=C/C(C)C)ccc1OCc1cn(-c2ccccc2F)nn1 | SRB | 10 µM, 48 h | – | growth percent | 82% |
| COC(=O)c1c(-c2cc(OC)c(OC)c(OC)c2)c2n(c1C(=O)OC)CCn1cccc1-2 | cell growth or viability, MTT | 48 h | – | IC50 | 72.7 µM |
| C[C@]1([N+](=O)[O-])C(=O)c2ccccc2O[C@@H]1CC(=O)NNc1nc2ccccc2s1 | cell growth or viability, SRB | 96 h | – | IC50 | > 50 µM |
